# Values quoted from earlier work that unrelated publications cite.
# Values joined by “and” are separate records of one study, mostly repeats; a detail may differ. ± gives the spread as reported.
# Sequence of UniProt P04818 (whole entry, looked up): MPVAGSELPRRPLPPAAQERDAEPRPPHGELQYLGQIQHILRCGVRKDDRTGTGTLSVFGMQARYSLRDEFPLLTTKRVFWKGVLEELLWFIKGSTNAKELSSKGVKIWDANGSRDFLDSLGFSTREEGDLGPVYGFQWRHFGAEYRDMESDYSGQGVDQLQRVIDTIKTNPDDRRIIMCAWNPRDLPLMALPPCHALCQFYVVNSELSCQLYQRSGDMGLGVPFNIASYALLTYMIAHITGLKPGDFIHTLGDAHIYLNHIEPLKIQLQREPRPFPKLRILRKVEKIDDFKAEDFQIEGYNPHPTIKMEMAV
SMILES,tested on,test,system,setting,scale,quantity,result
COc1ccc2occ(/C=C/c3cc(OC)c(OC)c(OC)c3)c(=O)c2c1,human gingival fibroblasts,,,,,CC50,339 ± 183 µM
Nc1nc(N)c2c(n1)[nH]c1cccc(Sc3ccccc3)c12,"TYMS (Homo sapiens, UniProt P04818)",inhibitor,,,,IC50,0.54 µM
CNC(=O)c1cc(Oc2ccc(NC(=O)Nc3ccc(Cl)c(C(F)(F)F)c3)cc2)ccn1,hiPSC-derived cardiomyocytes,contractility,,72 h,,lowest effective concentration,2.51 µM
COc1cc2c3c(n(CCCN4CCOCC4)c(=O)c2cc1OC)-c1cc2c(cc1C3=O)OCO2,NCI-60 panel (60 lines),,,mean graph midpoint,,GI50,4640 ± 1250 nM
CS(=O)(=O)CCNCc1ccc(-c2ccc3ncnc(Nc4ccc(OCc5cccc(F)c5)c(Cl)c4)c3c2)o1,hiPSC-derived cardiomyocytes,contractility,,"concentration not given, 72 h, at effective concentration",baseline: baseline,log2 fold change,0.4
O=C1c2cccc3c2[C@H](CCC3)CN1[C@@H]1CN2CCC1CC2,,,"healthy volunteers, plasma","oral, dose not given, netupitant-palonosetron alone, ketoconazole study",,CL/F,14.2 L/h
Nc1nc2c(nc(Sc3ccc(Cl)cc3)n2C2O[C@@H]3COP(=O)(O)O[C@H]3[C@H]2O)c(=O)[nH]1 (stereo in doubt),PDE5,"cyclic nucleotide hydrolysis, substrate or inhibitor, isothermal titration calorimetry",,,,Km or Ki,27.6 µM
Cc1nc2cccc(OCC(C)(C)C(=O)NC(C)C)c2c(N)c1C(=O)[O-].[Na+],primary human lymphocytes,,,"up to 500 µg/mL, with and without S9",,chromosomal aberration test,negative
C[C@@H](Oc1cc(-c2cnn(C3CCNCC3)c2)cnc1N)c1c(Cl)ccc(F)c1Cl,hiPSC-derived cardiomyocytes,contractility,,"concentration not given, 72 h, at effective concentration",baseline: baseline,log2 fold change,0.59
COc1cc(/C=C/C(=O)NCCc2ccc(O)cc2)ccc1O,RAW264.7,cytotoxicity,,24 h,,IC50,> 100 µM
Cn1c(Cn2ccc(C(F)(F)F)c(Oc3cc(Cl)cc(C#N)c3)c2=O)n[nH]c1=O,mock-infected MT-4,,,,,CC50,> 294 µM
CC[C@H]1OC(=O)[C@H](C)[C@@H](O[C@H]2C[C@@](C)(OC)[C@@H](O)[C@H](C)O2)[C@H](C)[C@@H](O[C@@H]2O[C@H](C)C[C@H](N(C)C)[C@H]2O)[C@](C)(OC)C[C@@H](C)C(=O)[C@H](C)[C@@H](O)[C@]1(C)O,hiPSC-derived cardiomyocytes,10% FPDc prolongation,,"concentration not given, unit not given",baseline: free plasma concentration,concentration for FPDc prolongation,13
Nc1nc2c(nc(Br)n2[C@@H]2O[C@@H]3COP(=O)(O)O[C@H]3[C@H]2O)c(=O)[nH]1,PDE5,"cyclic nucleotide hydrolysis, substrate or inhibitor, isothermal titration calorimetry",,,,Km or Ki,79.2 µM
CCN(CC)CCNC(=O)c1c(C)[nH]c(/C=C2\C(=O)Nc3ccc(F)cc32)c1C,hiPSC-derived cardiomyocytes,contractility,,72 h,,lowest effective concentration,0.81 µM
C[C@]12CC[C@@H]3c4cc(C56CC7CC(CC(C7)C5)C6)c(O)cc4CC[C@H]3[C@@H]1CC[C@@H]2O,HT-22,cell protection,,added: iodoacetic acid 40 µM,,EC50,152 nM
COc1ccc2occ(/C=C/c3ccc(O)cc3)c(=O)c2c1,Ca9-22,,,,,CC50,2 ± 1.2 µM
C#Cc1cccc(Nc2ncnc3cc(OCCOC)c(OCCOC)cc23)c1,hiPSC-derived cardiomyocytes,contractility,,72 h,,lowest effective concentration,63.4 µM
O=c1[nH]cc(F)c(=O)[nH]1,human gingival fibroblasts,,,,,CC50,> 1000 µM
N#Cc1ccc2c3c(n(CCCn4ccnc4)c(=O)c2c1)-c1ccccc1C3=O,NCI-60 panel mean,cell growth,,,,GI50,944 nM and ≥ 944 nM
COc1cc(O)c(CC=C(C)C)c(O)c1C(=O)/C=C/c1ccc(O)cc1,A549,cytotoxicity,,"48 h, approximate conversion from µg/mL",,IC50,~12.1 µM
CCCCCCCCCCCCCCCCO[C@@H]1O[C@H](CO)[C@@H](O)[C@H](O)[C@H]1O,B16-F10,"cytotoxicity, MTT",,24 h,,EC50,50000 nM
O=C(O)c1ccc(C=C2SC(=S)N(c3cccc(C(F)(F)F)c3)C2=O)cc1,CFTR-null cell lines,reactive oxygen species production,,30 min,,lowest effective concentration,0.2 µM
O=C1/C(=C/c2ccc(Cl)cc2)CCC/C1=C\c1ccc([N+](=O)[O-])cc1,"HGF, HPC, HPLF normal cells",,,,,CC50,289 µM
CNC(=O)c1ccccc1Sc1ccc2c(/C=C/c3ccccn3)n[nH]c2c1,hiPSC-derived cardiomyocytes,contractility,,"concentration not given, 72 h, at effective concentration",baseline: baseline,log2 fold change,0.44
COc1ccc(/C=C/c2coc3ccc(OC)cc3c2=O)cc1,Ca9-22,,,,,CC50,6.4 ± 2.4 µM
CC(C)c1ccc2c(c1)CCC1C(C)(CNC(=O)c3ccccc3)CCCC21C (stereo not drawn),mammalian cells,cytotoxicity,,,,IC50,> 100 µM
c1ccc2c(c1)cc1ccc3cccc4ccc2c1c34,primary human hepatocytes,"DNA damage, comet",,,,lowest effective concentration,6.3 µM
Cc1ccccc1-c1cc(N2CCN(C)CC2)ncc1N(C)C(=O)C(C)(C)c1cc(C(F)(F)F)cc(C(F)(F)F)c1,,,"healthy volunteers, plasma","oral, dose not given, netupitant-palonosetron combination, added: oral contraceptives",,Vz/F,2760 L
COc1cc2c(Nc3ccc(Br)cc3F)ncnc2cc1OCC1CCN(C)CC1,hiPSC-derived cardiomyocytes,contractility,,"concentration not given, 72 h, at effective concentration",baseline: baseline,log2 fold change,2.47
O=C1c2ccccc2-c2c1c1ccc([N+](=O)[O-])cc1c(=O)n2CCCn1ccnc1,ovarian OVCAR-3,cell growth,,,,GI50,864 nM
C[C@]12CC[C@@H]3c4ccc(O)cc4CC[C@H]3[C@@H]1CC[C@@H]2O,HT-22,cell protection,,added: glutamate 10 mM,,EC50,1360 nM
O=C1c2ccccc2-c2c1c1ccc([N+](=O)[O-])cc1c(=O)n2CCCN1CCOCC1,renal SN12C,cell growth,,,,GI50,309 nM
Cc1ccc(OCC(=O)N(Cc2cccs2)c2ccn[nH]2)cc1,Balb/c 3T3,,,"up to 100 µg/mL, with or without UVA 5 J/cm^2",,viability,< 68%
COc1cccc2c1C(=O)c1c(O)c3c(c(O)c1C2=O)C[C@@](O)(C(=O)CO)C[C@@H]3O[C@H]1C[C@H](N)[C@H](O)[C@H](C)O1,Ca9-22,,,,,CC50,0.15 ± 0.077 µM
Cc1nc(Nc2ncc(C(=O)Nc3c(C)cccc3Cl)s2)cc(N2CCN(CCO)CC2)n1,hiPSC-derived cardiomyocytes,contractility,,72 h,,lowest effective concentration,1.2 µM
O=C1c2ccccc2-c2c1c1ccc([N+](=O)[O-])cc1c(=O)n2C[C@H](O)CO,colon HCT-116,cell growth,,,,GI50,25 nM

# A few entries again:
SMILES,tested on,test,system,setting,scale,quantity,result
C[C@]12CC[C@@H]3c4ccc(O)cc4CC[C@H]3[C@@H]1CC[C@@H]2O,HT-22,cell protection,,added: glutamate 10 mM,,EC50,1360 nM
CC[C@H]1OC(=O)[C@H](C)[C@@H](O[C@H]2C[C@@](C)(OC)[C@@H](O)[C@H](C)O2)[C@H](C)[C@@H](O[C@@H]2O[C@H](C)C[C@H](N(C)C)[C@H]2O)[C@](C)(OC)C[C@@H](C)C(=O)[C@H](C)[C@@H](O)[C@]1(C)O,hiPSC-derived cardiomyocytes,10% FPDc prolongation,,"concentration not given, unit not given",baseline: free plasma concentration,concentration for FPDc prolongation,13
COc1cc(/C=C/C(=O)NCCc2ccc(O)cc2)ccc1O,RAW264.7,cytotoxicity,,24 h,,IC50,> 100 µM
